Results gathered from unrelated publications.
Parts stem from different laboratories: compare values within a part only. Positions count from the first letter of the parent shown.

Sample 1
Target: Ras GTPase-activating protein-binding protein 1, full length (G3BP1, Homo sapiens, UniProt Q13283)
UniProt Q13283, sequence (whole entry, looked up): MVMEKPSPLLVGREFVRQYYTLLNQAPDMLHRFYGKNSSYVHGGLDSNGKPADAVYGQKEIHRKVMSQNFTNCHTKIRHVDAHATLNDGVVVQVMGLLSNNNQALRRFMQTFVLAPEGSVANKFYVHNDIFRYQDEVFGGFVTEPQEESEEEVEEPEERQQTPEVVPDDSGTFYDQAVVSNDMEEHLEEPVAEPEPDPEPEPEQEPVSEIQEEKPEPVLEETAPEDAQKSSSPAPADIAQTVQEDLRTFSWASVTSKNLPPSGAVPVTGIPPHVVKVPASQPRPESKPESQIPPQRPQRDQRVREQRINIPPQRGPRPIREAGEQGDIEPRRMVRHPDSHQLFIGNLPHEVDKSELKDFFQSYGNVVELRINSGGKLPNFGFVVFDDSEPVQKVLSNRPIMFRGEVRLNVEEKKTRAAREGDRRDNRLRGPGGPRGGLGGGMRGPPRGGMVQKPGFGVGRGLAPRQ
Method: RNA Bind-n-Seq
Form: RNA
Medium: in vitro
Tested at: 200 nM
Notes: whole 134-nt RNA, ends assumed
Added: 150 mM KCl
Relative to: input library
Direction: higher = stronger binding
Constant ends, left off below: GGGAGUUCUACAGUCCGACGAUC … UGGAAUUCUCGGGUGUCAAGG
| Oligonucleotide | log2 enrichment |
| --- | --- |
| CACAGACAACACGCACCCACACAGACACAGAGGGAAGGGGUUGGGAUGGGGACAGGGUGCACAGCAGGAAAGGGUAGGACCCCAGCCCCU | 1.78 |
| UUGACUAUAUUGUGGAGUAUGACUAUGAUGCUGUACAUGAUGAUGAAUUAACUAUUCGAGUUGGAGAAAUCAUCAGGAAUGUGAAAAAGC | -1.48 |
| AAGUCCUGUGCUACACAUCGUAUGUACCGAAUCGGGUUUUUGGGUUUUUGGGUGGGAAAGUAUUAUGUUACGCCGUUCGGAUCUGCACUU | -0.11 |
| AAGUCCUGUGCUACACAUCGUAUGUACCGAAUCGGGUUUUUGGGAAAGGGUUUGGGAAAGUAUUAUGUUACGCCGUUCGGAUCUGCACUU | -0.0689 |
| CCUCAAGUCCUGUGCUACACAUCGUAUGUACCGAAUCGUGUGUGUGUGUGUGUAAAGUAUUAUGUUACGCCGUUCGGAUCUGCACUUCCA | 0.00369 |
| CAAGUCCUGUGCUACACAUCGUAUGUACCGAAUCGGGAAAGGGGAAAGGGAAAGGAAAGUAUUAUGUUACGCCGUUCGGAUCUGCACUUC | -0.326 |
| UAACUUUAGAGGAGGAUCUGAUGGAUAUGGCAGUGGACGUGGAUUUGGGGAUGGCUAUAAUGGGUAUGGAGGAGGACCUGGAGGUGACAA | 0.206 |
| GCAGGAAGUAAAAACAAAUGGAAAUGCUUCGGAUAGUGGCAGGGGUGGGGGUUGCUAUGGAAAGGGUGGGAUGGGAGUGGGUAAAGAGUU | 1.01 |
| CUCAAGUCCUGUGCUACACAUCGUAUGUACCGAAUCGGUUGGGUUGGGGUUGGGAAAGUAUUAUGUUACGCCGUUCGGAUCUGCACUUCC | 0.6 |
| CCUGUGCUACACAUCGUAUGUACCGAAUCGGGGUUUGGGGAAAAAAAGGGGAAAAAGGGGAAAGUAUUAUGUUACGCCGUUCGGAUCUGC | 0.00633 |
| AAGUCCUGUGCUACACAUCGUAUGUACCGAAUCGGUUUUUUUGGAAAAAGGUUUGGAAAGUAUUAUGUUACGCCGUUCGGAUCUGCACUU | -1.56 |
| CAAGUCCUGUGCUACACAUCGUAUGUACCGAAUCGGGUUUGGUUUGGGGUUUGGGAAAGUAUUAUGUUACGCCGUUCGGAUCUGCACUUC | 0.139 |
| GGGUCUGUUGCAAAUAAAUUCUAUGUUCACAAUGAUAUCUUCAGAUACCAAGAUGAGGUCUUUGGUGGGUUUGUCACUGAGCCUCAGGAG | -1.55 |
| GCAGGAAGUAAAAACAAAUGGAAAUGCUUCGGAUAGUGGCAGGGGUGGGGGUUGCUAAGGAAAGGGUGGGAUGGGAGUUGGUAAAGAGUU | 0.523 |

Sample 2
Target: CCNE2, cyclin fold, Cln2 fusion (human)
Method: yeast growth competition, sequencing
Medium: yeast
Notes: weak parent motif
Relative to: not given
Direction: higher = stronger binding
Parent: MASTL docking peptide (human); PMIAKNLMCELDE; partner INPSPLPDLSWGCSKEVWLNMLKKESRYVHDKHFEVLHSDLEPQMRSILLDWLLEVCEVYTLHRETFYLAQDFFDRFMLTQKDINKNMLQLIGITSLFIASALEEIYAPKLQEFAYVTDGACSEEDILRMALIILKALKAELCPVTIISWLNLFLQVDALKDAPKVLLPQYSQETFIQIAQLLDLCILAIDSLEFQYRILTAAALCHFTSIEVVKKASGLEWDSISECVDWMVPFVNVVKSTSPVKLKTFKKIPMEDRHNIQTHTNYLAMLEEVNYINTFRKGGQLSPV
| Change | normalised enrichment score |
| --- | --- |
| PMIAKNIMCELDE [L7I] | -0.0164 |
| PMMAKNLMCELDE [I3M] | -0.287 |
| PMTAKNLMCELDE [I3T] | -0.148 |
| PMIAKNLMCEDDE [L11D] | -0.156 |
| PMIAKNLECELDE [M8E] | 0.0938 |
| PMIAKNWMCELDE [L7W] | -0.116 |
| PMINKNLMCELDE [A4N] | 0.0165 |
| PMIGKNLMCELDE [A4G] | -0.327 |
| PMPAKNLMCELDE [I3P] | -0.133 |
| PMIAKRLMCELDE [N6R] | 0.167 |
| PMIAKNLMCEPDE [L11P] | -0.232 |
| PMCAKNLMCELDE [I3C] | -0.0344 |
| PMIAKNLMCELME [D12M] | 0.388 |
| PMIAKDLMCELDE [N6D] | -0.139 |

Sample 3
Target: RNA binding protein fox-1 homolog 2, RRM domain, GST-SBP tag (RBFOX2, Homo sapiens, UniProt O43251-10, residues 100-194)
Method: RNA Bind-n-Seq
Form: RNA
Medium: in vitro
Tested at: 365 nM
Notes: natural RNA segment, single round, ends assumed
Relative to: no-protein control
Direction: higher = stronger binding
Constant ends, left off below: GGGAGUUCUACAGUCCGACGAUC … UGGAAUUCUCGGGUGCCAA
| Oligonucleotide | RBNS enrichment (R) |
| --- | --- |
| UGUUGUACAAAAUAGUAAUGAUAGCCAUGGAAGUUUUACCUUAUUCUGUGAGAAGUGUUCUUAAACUUAUUAAGUGUCUAAACUAAGGUUUAGUGCUUUUUUAAAGGAAA | 0.572 |
| UUUUAGAAUAAACUCCUGCUUAUAGUAUACUACACAGUUCAAAAGAUGUUUAAAAUGCUUUUGUAUUUACUGCCAUGUAAUUGAAAUAUAUAGAUUAUUGUAACCUUUCA | 0.985 |
| AUUGAGCCCUCUGUCUUGCUCUCUCUGCCUUCCCUGUGUCUUUCUUCUCUUACCAGAGCAUCUGUUUGCAGAGGUAACAUUACCUUCCCCAGCCACAGGUAUGUGGAAUA | 1.04 |
| GCCGUCCCACCCUGCUGUGCCUGCACAGUUCCCAGUGCCUGUGCCUGCGCCUGCUGGGGACAGUGUGGCCCUGUCCCAGUAGCUUGAUGACUCAGGGUGGACCUUGCUCC | 1.67 |
| UGCACGCAUGUGUGUGUGUGCACGCACUGGGCUGGGCCAAGCGACUGAGGAUUCGCUUGGGAACGGGCAGGUGGUAGUAGGGGCGCCAGCUUGGGCUCUCCUGGCGCCCC | 0.99 |
| CCUUUUUCUUCUCUCUUCCUUUUAUUUUUUUCUGAAUCCUUUUAUUUUGUGUUAACAGAAAUUCAUAUUUGGUGUGGCUUAAUGUAUUUUGGAAGGUCAUCAGAUUGUGA | 0.643 |
| UCAUUCCAAGCUAUCAUGCUCACGCCAUGUCAACAGCACCAUUUGUACUAAUGCUAAUAAUUCCAUCAAAAUUUGCCUGUGGAACAUAUAUUGUCCUUAACUUUAAGAUG | 0.711 |
| GGACAGACGGCCUCCCUCCUCUCCAUCUGACCGGCACCUGCUGCUUCGGGGCUUAGGCCACCGCUCCCUGUCCCCAGAGGAGAUAGCCCCAGAUGGACUGGAAUGUUGUG | 0.504 |
| UGGCCAGAGCUCCUGGUGUCAAAUGCUGGGAACAGGAGUCUUCUUACAAAUUAUUUUUCUCCUCUUUCCUCUCGCCCUCUCUUUCACUAUUUUCCCCCCAGACUGGAAUU | 0.56 |
| GUUAAUUGGUAUUCAUUCACAAUGCAGUUGAAGGGGGAAGGCUCCACUGCAUUCUUUGGCUAAGGCCUGAAUGCUUGCUCAUCUGUAAGAUCUAUACUCGAGGUUUUGUU | 0.663 |
| GGAAGGGCUGUCGGGACAUACUUUCUACAUAACGCUACAACCCUGACCAAGCAAAGACAUGCUUGUUACAGGCUAUUUUCUAUAUUUAUUGUGGGAGAGUCACUUUAAAG | 0.656 |
| CAACUUGGUCUUGUCAAAGAACACCGAUUCCACUCAACUAAGGCACCAGCCUGUUUCUGAGACCACAGAAGAAAACCCCAGGGAUGGAUUUAUGAACAGCUGUGUCUGCU | 0.421 |

Mixed results
| Molecule | target | assay | system | conditions | scale | quantity | value |
| --- | --- | --- | --- | --- | --- | --- | --- |
| PhoQ, residues 284 288 289 292 302 303 TLASMF | PhoP, residues 12 14 15 18 19 AQALL (Escherichia coli, UniProt P23836) | Sort-seq, item: YFP reporter | E. coli | PhoQ-PhoP variant library, added: 10 µM Mg2+ | relative to: high Mg2+ state, higher = stronger signaling | fold induction | 4.89 |

Repeated from above (sample 1):
| Oligonucleotide | log2 enrichment |
| --- | --- |
| CCUGUGCUACACAUCGUAUGUACCGAAUCGGGGUUUGGGGAAAAAAAGGGGAAAAAGGGGAAAGUAUUAUGUUACGCCGUUCGGAUCUGC | 0.00633 |
| AAGUCCUGUGCUACACAUCGUAUGUACCGAAUCGGUUUUUUUGGAAAAAGGUUUGGAAAGUAUUAUGUUACGCCGUUCGGAUCUGCACUU | -1.56 |
| CAAGUCCUGUGCUACACAUCGUAUGUACCGAAUCGGGUUUGGUUUGGGGUUUGGGAAAGUAUUAUGUUACGCCGUUCGGAUCUGCACUUC | 0.139 |
| GGGUCUGUUGCAAAUAAAUUCUAUGUUCACAAUGAUAUCUUCAGAUACCAAGAUGAGGUCUUUGGUGGGUUUGUCACUGAGCCUCAGGAG | -1.55 |
| GCAGGAAGUAAAAACAAAUGGAAAUGCUUCGGAUAGUGGCAGGGGUGGGGGUUGCUAAGGAAAGGGUGGGAUGGGAGUUGGUAAAGAGUU | 0.523 |
